Assay results pooled from the literature.
“And” joins repeats or separate records; there may be more than shown. ± marks the error that the study gave.

SMILES | assay | system | setting | Cmax
CONC(=O)/C=C/c1cccc(S(=O)(=O)Nc2ccccc2)c1 | – | patients with mild liver dysfunction, plasma | intravenous, 400 mg/m^2 belinostat, single 30 min infusion, cycle 1 day -7, mean | 2990 ng/mL
Cn1cc(C(N)=O)c(NC2C3CC4CC2CC(O)(C4)C3)c2ccnc1-2 (stereo not shown) | – | Japanese adults, normal hepatic function, plasma | oral, 150 mg single dose | 35.6 ng/mL
O=C(O)c1cccc(S(=O)(=O)Nc2ccccc2)c1 | – | patients with normal liver function, plasma | intravenous, 400 mg/m^2 belinostat, single 30 min infusion, cycle 1 day -7, mean | 2560 ng/mL
CC[C@@H](C)[C@H]1NC(=O)[C@@H]([C@H](C)O)NC(=O)[C@@H](Cc2c[nH]cn2)NC(=O)CNC(=O)[C@@H](CCCNC(=N)N)NC(=O)CNC(=O)[C@@H](Cc2ccccc2)NC1=O | – | New Zealand white rabbit, female, retina-choroid | ocular, 0.5% eye drop | ~6.7 µM
Cc1ccccc1-c1cc(N2CC[N+](C)([O-])CC2)ncc1N(C)C(=O)C(C)(C)c1cc(C(F)(F)F)cc(C(F)(F)F)c1 | – | healthy volunteers, plasma | oral, dose not given | 147 to 202 ng/mL
NC(=O)/C=C/c1cccc(S(=O)(=O)Nc2ccccc2)c1 | – | patients with mild liver dysfunction, plasma | intravenous, 400 mg/m^2 belinostat, single 30 min infusion, cycle 1 day -7, mean | 1790 ng/mL
CC(C)(Sc1ccncc1-c1ccc(C#N)c2ccccc12)C(=O)OC1OC(C(=O)O)C(O)C(O)C1O (stereo not shown) | – | plasma | oral, 15 mg, severe renal impairment, fasted | 91 ng/mL
Cn1cnc2ccc(Nc3c(F)ccc(NS(=O)(=O)N4CC(F)C4)c3Cl)c(Cl)c2c1=O | phase 1 trial | human, plasma | 50 mg once daily, cycle 1 day 15 | 1900 ng/mL and 1780 ng/mL and 1360 ng/mL
Cc1ccccc1-c1cc(N2CCNCC2)ncc1N(C)C(=O)C(C)(C)c1cc(C(F)(F)F)cc(C(F)(F)F)c1 | – | cancer patients, plasma | oral, dose not given, netupitant-palonosetron single dose, range of means | 36 to 40.6 ng/mL
Cc1ccc([C@@H]2O[C@H](CO)[C@@H](O)[C@H](O)[C@H]2O)cc1Cc1ccc(-c2ccc(F)cc2)s1 | – | albino rabbit, plasma | oral or sublingual, dose not given | 597 ± 95.2 ng/mL
CN1CC[C@@H](NC(=O)Nc2ccc(C#N)cc2)C[C@@H]1c1nc2ccccc2[nH]1 | item: total compound | severe hepatic impairment, plasma | oral, 100 mg single dose, fasted, arithmetic mean | 612 ng/mL
Cn1cc(C(N)=O)c(NC2C3CC4CC2CC(OS(=O)(=O)O)(C4)C3)c2ccnc1-2 (stereo not shown) | – | Japanese adults, normal hepatic function, plasma | oral, 150 mg single dose | 44.8 ng/mL
COc1cc(C)c(Cc2ccc(O)cc2)cc1[C@@H]1S[C@H](CO)[C@@H](O)[C@H](O)[C@H]1O | – | Japanese T2DM patients, plasma | 1 mg luseogliflozin, day 7, once daily | 2.95 ± 0.522 ng/mL
CN1CCN(c2cc(-c3ccccc3CO)c(N(C)C(=O)C(C)(C)c3cc(C(F)(F)F)cc(C(F)(F)F)c3)cn2)CC1 | – | healthy volunteers, plasma | oral, dose not given | 60.1 to 81.8 ng/mL
CC(=O)N[C@H](CC(=O)O)C(=O)N[C@H](Cc1c[nH]c2ccccc12)C(=O)N[C@H](Cc1ccccc1)C(=O)N[C@H](CCCCN)C(=O)N[C@H](C)C(=O)N[C@H](Cc1ccccc1)C(=O)N[C@H](Cc1ccc(O)cc1)C(=O)N[C@H](CC(=O)O)C(=O)N[C@H](CCCCN)C(=O)N[C@@H](C(=O)N[C@H](C)C(=O)N[C@H](CCC(=O)O)C(=O)N[C@H](CCCCN)C(=O)N[C@H](Cc1ccccc1)C(=O)N[C@H](CCCCN)C(=O)N[C@H](CCC(=O)O)C(=O)N[C@H](C)C(=O)N[C@H](Cc1ccccc1)C(N)=O)C(C)C | – | statin-treated high-risk CHD men, plasma | oral, 300 mg daily, day 13, 0 to 8 h, mean, undetectable set to 0 | 5.38 ng/mL
O=C(O)/C=C/c1cccc(S(=O)(=O)Nc2ccccc2)c1 | – | patients with normal liver function, plasma | intravenous, 400 mg/m^2 belinostat, single 30 min infusion, cycle 1 day -7, mean | 1680 ng/mL
CC(C)(Sc1cc[n+]([O-])cc1-c1ccc(C#N)c2ccccc12)C(=O)OC1OC(C(=O)O)C(O)C(O)C1O (stereo not shown) | – | plasma | oral, 15 mg, severe renal impairment, fasted | 87.2 ng/mL
NC(=O)c1cnc2[nH]ccc2c1NC1C2CC3CC1CC(OS(=O)(=O)O)(C3)C2 (stereo not shown) | – | Japanese adults, mild hepatic impairment, plasma | oral, 150 mg single dose | 809 ng/mL
CC(C)[C@H](NC(=O)CNC(=O)[C@H](CCC(N)=O)NC(=O)[C@H](C)N)C(=O)O | – | healthy volunteers, LPS endotoxaemia, plasma | intravenous, 15 mg/kg/h, 2 h infusion, geometric mean, together with: LPS 2 ng/kg | 1980 ng/mL
